# Measurements of several laboratories.
# Compare with care: the assays were run in different laboratories. Numbers after ± are the reported error.
SMILES,assay,test system,conditions,how to read,endpoint,value
CC(C)C[C@@H](NC(=O)[C@H](NC(=O)[C@H]1CCCN1)[C@H](C)O)C(=O)N[C@H](Cc1c[nH]cn1)C(=O)N[C@@H](C(=O)N[C@H](Cc1c[nH]cn1)C(=O)N[C@H](CC(N)=O)C(=O)N[C@H](CCCNC(=N)N)C(=O)N[C@H](CCCNC(=N)N)C(=O)N[C@H](CCCNC(=N)N)C(=O)N[C@H](CCCNC(=N)N)C(=O)N[C@H](CCCNC(=N)N)C(N)=O)[C@H](C)O,,"beagle dog, plasma","oral, 20 mg/kg, single dose",,MRT,40 h
CCCC[C@@H]1NC(=O)[C@@H](NC(=O)[C@H](CCC(=O)O)NC(=O)CNC(=O)CN2CCN(CC(=O)O)CCN(CC(=O)O)CCN(CC(=O)O)CC2)CCCCNC(=O)C[C@@H](C(N)=O)NC(=O)[C@H](C(C)C)NC(=O)[C@@H]2CCCN2C(=O)[C@H](CCCNC(=N)N)NC(=O)CNC(=O)[C@H](Cc2c[nH]c3ccccc23)NC(=O)[C@H](CCCNC(=N)N)NC(=O)[C@@H](Cc2ccccc2)NC(=O)[C@H](Cc2c[nH]cn2)NC(=O)[C@H](CCC(=O)O)NC1=O [gallium-67 labelled],,"C57 mice, B16/F1 flank melanoma","intravenous, 2 h, added: blocking peptide 10 µg",relative to: tumour over liver,tissue ratio,1.28
COCCOCCOCCOCCOCCOCCOCCOCCC(=O)NCCCc1cc2cc3nc(cc4[nH]c(cc5nc(c(OC)c1[nH]2)C(=O)C5(C)C)cc4CCc1ccc(C(=O)O)cc1)CC3(C)C,,DMF,room temperature,,kf^−1,16 ns
CC[C@@H](C)[C@@H](NC(=O)[C@@H](C)NC(=O)[C@@H](CCCCN)NC(=O)[C@@H](CC(C)C)NC(=O)[C@@H](C)NC(=O)[C@H](NC(=O)[C@@H](Cc1c[nH]cn1)NC(=O)[C@@H](CC(C)C)NC(=O)[C@H](NC(=O)[C@H](NC(=O)[C@@H](CCCCN)NC(=O)[C@H](NC(=O)[C@@H](C)NC(=O)[C@@H](CO)NC(=O)[C@@H](CCCCN)NC(=O)[C@@H](Cc1ccccc1)NC(=O)[C@H](NC(=O)[C@@H](CCCCN)NC(=O)[C@@H](CC(C)C)NC(=O)[C@@H](Cc1ccccc1)NC(=O)[C@@H](CO)NC(=O)[C@@H](CCCCN)NC(=O)[C@@H](Cc1c[nH]c2ccccc12)NC(=O)[C@@H](CCCCN)NC(C)=O)[C@H](C)O)C(C)C)[C@H](C)O)C(C)C)[C@H](C)O)C(=O)N[C@H](CO)C(=O)N[C@H](CO)C(N)=O,circular dichroism,aqueous buffer,"pH 7.0, 5 °C",relative to: reference peptide in TFE,helical content,34%
CC(C)(O)c1ncc([S@](N)(=O)=NC(=O)Nc2c3c(cc4c2CCC4)CCC3)s1,,"healthy human volunteers, plasma","oral, 10 mg once daily, day 14, capsule formulation",,half-life,9.58 h
N=C(N)NCCC[C@@H]1NC(=O)[C@H](Cc2c[nH]c3ccccc23)NC(=O)[C@@H](CC2CCCCC2)NC(=O)[C@@H]2CCCN2C(=O)[C@@H](NC(=O)CCc2ccccc2)CCCNC1=O,,"C57BL/6J mice, brain","intraperitoneal, 1 mg/kg, two-compartment model",,absorption rate constant,3.81 h⁻¹
Cn1c(=O)oc2ccc(-c3ccc(CC(C#N)NC(=O)C4CNCCCO4)c(F)c3)cc21 (stereo not drawn),,"human, plasma","once daily for 28 days, multiple ascending dose",,half-life,~26 h
COc1cccc([O-])c1C=NCCCN(C)CCN(C)CCCN=Cc1c([O-])cccc1OC.[67Ga+3],,rat,"intravenous, 2 h",relative to: heart over lung,tissue uptake ratio,2.4 ± 0.3
COC(=O)c1ccc(-c2cn(Cc3cc(Cl)ccc3O[11CH3])nn2)cc1,PET one-tissue compartment model,"rhesus monkey, white matter",dose not given,,distribution volume (VT),0.496 mL/cm³
CONC(=O)/C=C/c1cccc(S(=O)(=O)Nc2ccccc2)c1,,"human, moderate liver dysfunction, plasma","intravenous, 400 mg/m^2 belinostat, cycle 1 day -7, geometric mean",relative to: metabolite over belinostat,AUC(0-inf) metabolic ratio,0.892
Cc1nc(C)c(C=[N+]([O-])C(C)(C)C)nc1C,,"Sprague-Dawley rat both sexes, brain","oral, 45 mg/kg, 30 min",,brain concentration,~100 µM
O=C(NCCCN(CCCCN(CCCNC(=O)c1cccc(=O)n1[O-])C(=O)c1cccc(=O)n1[O-])C(=O)c1cccc(=O)n1[O-])c1cccc(=O)n1[O-].[89Zr+4],radio-TLC,PBS,"5 d, pH 7.4, 37 °C, added: Cu^2+ 10-fold excess",,intact complex,98.3 ± 2.4%
Cc1cc(O)cc(O)c1C(=O)c1c2c3c(c(O)cc(C)c3oc1=O)C(=O)c1c(O)cc(O)cc1-2,,"KM mice, male, plasma","intraperitoneal, 30 mg/kg",,absorption rate constant,0.9 h⁻¹
Cc1ccc(-c2ccc(-c3cc4sccc4o3)cn2)nc1,TCSPC,"water, HEPES 100 mM",pH 7.4,,radiative decay rate constant,0.23 ns⁻¹
OC1(C(F)(F)F)CCN(c2nc(Nc3ccnc(C(F)(F)F)c3)nc(-c3cccc(C(F)(F)F)n3)n2)C1 (stereo not drawn),,"rat, bone marrow",,relative to: vehicle,micronucleus frequency,no effect
COc1cc([O-])c(C=NCCCN(C)CCN(C)CCCN=Cc2c([O-])cc(OC)cc2OC)c(OC)c1.[67Ga+3],,rat,"intravenous, 2 h",relative to: heart over blood,tissue uptake ratio,6.4 ± 1.3
O=C([O-])CN1CCN(CC(=O)[O-])CCN(CC(=O)NCC2CCC(C(=O)NC(Cc3ccc4ccccc4c3)C(=O)NCCCCC(NC(=O)NC(CCC(=O)O)C(=O)O)C(=O)O)CC2)CCN(CC(=O)[O-])CC1.[44Sc+3] (stereo not drawn),transmetallation stability,,"2 h, 37 °C, added: Ca2+ 10 mM",,intact complex,97 ± 0.1%
CCc1c2c(nc3ccc(O)cc13)-c1cc3c(c(=O)n1C2)COC(=O)[C@]3(O)CC,,"human patients, plasma","intravenous, 177 mg/m^2 of parent drug",,Tmax,2.34 h
NC[C@@H](C(=O)Nc1ccc(-c2cn[nH]c2)cc1)c1ccccc1,OECD 405 eye irritation,"New Zealand White rabbit, eye","topical, 0.1%, 32 h (day 2), scale 0 to 4",direction not given,chemosis score,0
COc1ccc(-c2csc(N/N=C(\C)c3cc(O)cc(O)c3)n2)cc1,LC-MS/MS,rat plasma,"3.75 ng/mL, 20 °C, 5 freeze-thaw cycles",,concentration change,-9.6%
NCC(=O)N1CCC[C@H]1C(=O)N1C[C@H](O)C[C@H]1C(=O)O,potentiometric titration,,"40 °C, MAH-2 complex, added: Fe(III)",,log beta,8.75
O=C([O-])CN1CCN(CC(=O)[O-])CCN(CC(=O)c2ccc(-c3ccc(OCC(=O)O)cc3)cc2)CCN(CC(=O)[O-])CC1.[Gd+3],,,"concentration not given, TSAP isomer",,activation enthalpy of water exchange,10 kcal/mol
CN1CCC[C@]1(C)/C=C/S(=O)(=O)NC(=O)Nc1c2c(cc3c1CCC3)CCC2,,"human, plasma","oral, 100 mg twice daily, day 14, multiple ascending dose",,"Tmax after second dose, median",1 h
CN1CCC(N[C@@H]2CCc3[nH]c4c(C(N)=O)ccc(-c5ccccc5Cl)c4c3C2)CC1,,BALB/c mice,"oral, 10 mg/kg",relative to: intravenous 2 mg/kg,oral bioavailability,35.4%
CC(C)[C@H](NC(=O)[C@@H]1CCCN1C(=O)[C@H](CCCNC(=N)N)NC(=O)[C@H](CS)NC(=O)[C@H](Cc1c[nH]c2ccccc12)NC(=O)[C@H](CCCNC(=N)N)NC(=O)[C@@H](Cc1ccccc1)NC(=O)[C@H](Cc1c[nH]cn1)NC(=O)[C@H](CCC(=O)O)NC(=O)[C@H](CS)NC(=O)[C@H](CS)NC(=O)[C@@H]1CC(=O)N[C@@H](CCCNC(=N)N)C(=O)NCC(=O)N[C@@H](CC(=O)O)C(=O)N[C@H](Cc2ccc(O)cc2)C(=O)N1)C(N)=O [technetium-99m labelled],,"C57 mouse, female, B16/F1 melanoma","intravenous, 0.037 MBq, 4 h",relative to: tumour over muscle,tumour to tissue ratio,60.5
[11CH3]c1ccc2nc(C3CCC3)n(-c3ccc4[nH]ncc4c3)c2n1,,"ddY mouse, heart",,relative to: 1 min over 60 min,uptake ratio,3.6
CC1C(c2c(F)ccc(F)c2F)CC(N[14C](=O)c2cnc3c(c2)CC2(C3)C(=O)Nc3ncccc32)C(=O)N1CC(F)(F)F (stereo not drawn),"liquid scintillation counting, item: total radioactivity","human, plasma","oral, 50 mg, single dose, 14C-labelled",,"Tmax, median",1.5 h
COc1cc(NC(C)=O)c2c(c1O)-c1c(OC)c(OC)cc3c1C(C2)N(C)CC3 (stereo not drawn),,rat lung homogenate,"50 µg/mL, 4 h, room temperature, short-term storage",,remaining compound,101 ± 5.2%
Cc1ccc(OCC(=O)N(Cc2cccs2)c2ccn[nH]2)cc1,,"male beagle dog, plasma","intravenous, 1 mg/kg, single dose",,clearance,18.4 mL/min/kg
Cc1cccc(O[C@H]2CCC[C@@H](C(C)CNCc3ccncc3)C2)c1 (relative stereo),,"C57BL/6 female mice, plasma","intravenous, 3 mg/kg",,AUC(0-inf),701 ng·h/mL
CC(C)c1cnc(-c2cc(Cl)ccc2F)cc1Nc1ccncc1C(=O)NC(CO)CO,"monotherapy, item: headache",human patients,"oral, dose not given, grade 4, phase I A",,patients with treatment-related adverse event,0%
Cc1cccc(-c2cccc(C)n2)n1.Cc1cccc(-c2cccc(C)n2)n1.[Cl-].[Cl-].[Ru+2].c1ccc(-c2ccnc3c2ccc2c(-c4ccccc4)ccnc23)cc1,,phosphate buffer with NaCl,"concentration not given, pH 6.0, 37 °C, dark, dialysis",,total release from nanoassemblies,72.5%
CC(=O)N([O-])CCCCCNC(=O)CCC(=O)N([O-])CCCCCNC(=O)CCC(=O)N([O-])CCCCCN.[89Zr+4],radio-iTLC,aqueous buffer,"3 h, pH 7.5, 37 °C, EDTA challenge, added: 100-fold excess EDTA",,intact complex,95.8 ± 0.5%
[11CH3]N1CCN(CCCOc2ccc(=O)n(-c3ccc(Cl)c(Cl)c3)n2)CC1,PET-CT,"BALB/c mouse male, brain","intravenous, dose not given, 5 min",,uptake,7.66 ± 0.82 %ID/cc
C[Si]1(C[C@@H](CN)CC(=O)O)CCCC1,,"Sprague-Dawley rat, male, brain","oral, 100 mg/kg, estimated as Cmax x Kp",,brain Cmax,8 µM
C=CC(=O)Nc1cc(Nc2nccc(-c3cn(C4CC4)c4ccccc34)n2)c(OC)cc1NC,"radio-HPLC, co-eluting peaks pooled","human male, feces","oral, 110 mg, 0 to 240 h, sample holds 81.99% dose",relative to: dose,excreted amount,0.94%
CCc1nc(N)nc(N)c1C#CC(C)c1cc(-c2cc(C)nc(C)c2)ccc1Cl (stereo not drawn),extrapolated from hepatocyte CLint,pooled human hepatocytes,1 µM,,hepatic clearance,~10 mL/min/kg
CCC(C)N(C)C(=O)c1nc(-c2cccc(C(F)(F)[18F])c2)c2ccccc2n1 (stereo not drawn),,"mouse, lung","intravenous, 3.7 MBq, 15 min",,tracer uptake,23 %ID/g
CC(C)[C@H](NC(=O)CNC(=O)[C@H](CCC(N)=O)NC(=O)[C@H](C)N)C(=O)O,LC-MS/MS,"human, male, plasma","intravenous, 30 mg/kg three times daily, day 1, first dose, 10 min infusion, geometric mean",,volume of distribution,16 L/kg
CCCC[C@H](NC(=O)CNC(=O)CNC(=O)CN1CCN(CC(=O)O)CCN(CC(=O)O)CC1)C(=O)N[C@H]1CC(=O)NCCCC[C@@H](C(N)=O)NC(=O)[C@H](Cc2c[nH]c3ccccc23)NC(=O)[C@H](CCCNC(=N)N)NC(=O)[C@@H](Cc2ccccc2)NC(=O)[C@H](Cc2c[nH]cn2)NC1=O [gallium-67 labelled],,"female C57 mice, B16/F1 melanoma","intravenous, 0.037 MBq, 2 h",relative to: tumour over kidney,tumour to tissue ratio,3.01
COC(=O)C(c1ccccc1Cl)N1CCC(SCC(=O)c2cccc(OC)c2)C(=CC(=O)O)C1 (mixture of isomers),,feline plasma,room temperature,,storage stability time,1 weeks
NCCC(=O)N1Cc2ccccc2-c2c(nnn2-c2nc(N)c3ncn(C4OC(CO)C(O)C4O)c3n2)-c2ccccc21 (mixture of isomers),frequency-domain fluorometry,methanol,,,fluorescence lifetime τ2,2 ns
